# Assay results gathered from unrelated publications.
# Every numbered part comes from another study and shows a few of its results, in no order.
# Chain of UniProt P10721 (whole entry, unmodified, looked up): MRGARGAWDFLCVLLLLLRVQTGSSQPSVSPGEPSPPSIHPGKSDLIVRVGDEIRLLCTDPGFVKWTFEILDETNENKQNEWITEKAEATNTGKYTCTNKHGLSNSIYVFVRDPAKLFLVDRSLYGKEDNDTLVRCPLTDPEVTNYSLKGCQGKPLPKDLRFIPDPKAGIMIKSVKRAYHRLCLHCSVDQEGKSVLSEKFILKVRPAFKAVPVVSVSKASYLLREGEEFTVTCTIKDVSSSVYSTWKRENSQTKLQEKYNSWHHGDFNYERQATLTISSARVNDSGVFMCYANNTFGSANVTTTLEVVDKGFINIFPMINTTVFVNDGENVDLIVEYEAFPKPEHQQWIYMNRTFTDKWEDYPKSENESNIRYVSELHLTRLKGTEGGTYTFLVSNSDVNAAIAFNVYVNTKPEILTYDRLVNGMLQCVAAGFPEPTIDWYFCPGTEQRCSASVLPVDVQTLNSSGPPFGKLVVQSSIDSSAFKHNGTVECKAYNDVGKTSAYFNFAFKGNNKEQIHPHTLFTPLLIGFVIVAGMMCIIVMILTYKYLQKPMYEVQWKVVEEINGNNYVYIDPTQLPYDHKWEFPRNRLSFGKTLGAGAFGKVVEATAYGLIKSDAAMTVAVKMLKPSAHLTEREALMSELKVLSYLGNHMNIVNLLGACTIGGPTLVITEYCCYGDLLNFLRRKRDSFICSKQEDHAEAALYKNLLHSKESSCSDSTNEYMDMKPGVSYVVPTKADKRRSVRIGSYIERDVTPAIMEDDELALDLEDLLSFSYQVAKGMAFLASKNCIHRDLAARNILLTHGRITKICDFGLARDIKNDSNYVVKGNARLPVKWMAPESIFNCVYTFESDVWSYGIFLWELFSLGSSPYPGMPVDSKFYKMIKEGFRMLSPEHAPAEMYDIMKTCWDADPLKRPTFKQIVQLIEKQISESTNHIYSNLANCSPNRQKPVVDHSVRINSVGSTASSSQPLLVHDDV
# Chain of UniProt Q13546 (whole entry, looked up): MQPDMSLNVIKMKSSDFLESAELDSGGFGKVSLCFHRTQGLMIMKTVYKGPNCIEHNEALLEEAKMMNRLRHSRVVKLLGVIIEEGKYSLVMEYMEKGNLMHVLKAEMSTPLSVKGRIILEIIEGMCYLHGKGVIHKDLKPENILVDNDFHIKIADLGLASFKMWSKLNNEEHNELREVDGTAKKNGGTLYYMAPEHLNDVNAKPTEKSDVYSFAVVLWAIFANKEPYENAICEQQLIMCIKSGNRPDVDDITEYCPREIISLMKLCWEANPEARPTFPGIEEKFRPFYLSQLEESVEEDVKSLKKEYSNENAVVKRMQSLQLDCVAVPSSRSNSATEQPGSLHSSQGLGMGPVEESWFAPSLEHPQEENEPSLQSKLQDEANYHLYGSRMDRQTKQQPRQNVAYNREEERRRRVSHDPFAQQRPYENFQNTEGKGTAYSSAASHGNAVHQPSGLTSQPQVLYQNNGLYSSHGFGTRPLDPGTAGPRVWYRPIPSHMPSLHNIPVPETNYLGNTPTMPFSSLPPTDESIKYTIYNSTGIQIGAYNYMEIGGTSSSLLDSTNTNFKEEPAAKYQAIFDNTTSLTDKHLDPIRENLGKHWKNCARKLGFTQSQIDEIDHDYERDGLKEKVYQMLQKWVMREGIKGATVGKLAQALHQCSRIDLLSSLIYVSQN
# Chain of UniProt Q16620 (whole entry, looked up): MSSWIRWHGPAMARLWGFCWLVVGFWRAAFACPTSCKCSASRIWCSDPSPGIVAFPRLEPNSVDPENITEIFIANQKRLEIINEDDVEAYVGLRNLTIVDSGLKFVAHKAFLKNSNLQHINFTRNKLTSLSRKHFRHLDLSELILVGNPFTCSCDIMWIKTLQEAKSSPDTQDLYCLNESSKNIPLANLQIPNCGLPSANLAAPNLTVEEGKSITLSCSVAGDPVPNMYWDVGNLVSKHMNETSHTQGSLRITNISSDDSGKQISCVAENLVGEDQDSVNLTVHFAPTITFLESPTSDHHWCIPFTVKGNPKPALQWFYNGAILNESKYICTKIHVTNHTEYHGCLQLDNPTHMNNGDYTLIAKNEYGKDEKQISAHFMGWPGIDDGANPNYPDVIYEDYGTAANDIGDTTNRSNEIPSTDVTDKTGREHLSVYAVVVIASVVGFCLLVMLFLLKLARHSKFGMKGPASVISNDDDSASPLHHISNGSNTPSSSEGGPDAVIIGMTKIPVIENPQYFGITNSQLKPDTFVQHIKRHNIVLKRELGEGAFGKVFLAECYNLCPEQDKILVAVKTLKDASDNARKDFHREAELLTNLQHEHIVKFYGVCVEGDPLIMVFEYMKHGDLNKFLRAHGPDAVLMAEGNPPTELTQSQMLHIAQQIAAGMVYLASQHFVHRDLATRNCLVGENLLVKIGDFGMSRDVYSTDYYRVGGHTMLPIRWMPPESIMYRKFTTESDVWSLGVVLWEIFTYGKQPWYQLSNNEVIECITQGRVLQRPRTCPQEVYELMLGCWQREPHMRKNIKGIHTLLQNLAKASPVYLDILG
# Chain of UniProt Q6ZWH5 (whole entry, looked up): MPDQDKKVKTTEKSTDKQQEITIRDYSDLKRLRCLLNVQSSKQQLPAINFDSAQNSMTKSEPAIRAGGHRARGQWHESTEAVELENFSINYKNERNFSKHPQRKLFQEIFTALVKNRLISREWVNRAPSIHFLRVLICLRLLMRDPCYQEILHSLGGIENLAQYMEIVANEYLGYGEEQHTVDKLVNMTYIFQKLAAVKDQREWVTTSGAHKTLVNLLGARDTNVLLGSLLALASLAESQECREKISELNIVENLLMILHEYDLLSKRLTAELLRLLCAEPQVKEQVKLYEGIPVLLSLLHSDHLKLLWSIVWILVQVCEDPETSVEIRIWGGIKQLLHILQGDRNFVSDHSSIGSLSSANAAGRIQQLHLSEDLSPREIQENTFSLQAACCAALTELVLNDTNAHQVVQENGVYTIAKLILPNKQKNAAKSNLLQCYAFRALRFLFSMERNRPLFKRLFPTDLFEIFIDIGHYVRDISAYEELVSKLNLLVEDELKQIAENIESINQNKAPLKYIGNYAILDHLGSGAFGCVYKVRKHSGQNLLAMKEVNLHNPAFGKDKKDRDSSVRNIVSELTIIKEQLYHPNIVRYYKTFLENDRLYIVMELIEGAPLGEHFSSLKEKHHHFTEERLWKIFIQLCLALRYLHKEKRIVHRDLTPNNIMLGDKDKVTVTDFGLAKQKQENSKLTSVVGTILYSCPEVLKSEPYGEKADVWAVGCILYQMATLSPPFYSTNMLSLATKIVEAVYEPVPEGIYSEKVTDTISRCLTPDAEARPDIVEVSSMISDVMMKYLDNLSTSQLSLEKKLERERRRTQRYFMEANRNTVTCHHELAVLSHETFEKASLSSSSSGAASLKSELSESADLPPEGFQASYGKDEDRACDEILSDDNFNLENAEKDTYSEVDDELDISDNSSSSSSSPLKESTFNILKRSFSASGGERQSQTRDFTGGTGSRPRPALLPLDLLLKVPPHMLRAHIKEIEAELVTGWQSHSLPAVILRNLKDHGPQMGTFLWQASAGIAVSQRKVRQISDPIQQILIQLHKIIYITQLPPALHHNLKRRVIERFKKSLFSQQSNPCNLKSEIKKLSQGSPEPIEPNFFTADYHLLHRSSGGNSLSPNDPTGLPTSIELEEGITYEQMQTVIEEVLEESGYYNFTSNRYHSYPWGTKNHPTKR
# Chain of UniProt Q13554 (whole entry, looked up): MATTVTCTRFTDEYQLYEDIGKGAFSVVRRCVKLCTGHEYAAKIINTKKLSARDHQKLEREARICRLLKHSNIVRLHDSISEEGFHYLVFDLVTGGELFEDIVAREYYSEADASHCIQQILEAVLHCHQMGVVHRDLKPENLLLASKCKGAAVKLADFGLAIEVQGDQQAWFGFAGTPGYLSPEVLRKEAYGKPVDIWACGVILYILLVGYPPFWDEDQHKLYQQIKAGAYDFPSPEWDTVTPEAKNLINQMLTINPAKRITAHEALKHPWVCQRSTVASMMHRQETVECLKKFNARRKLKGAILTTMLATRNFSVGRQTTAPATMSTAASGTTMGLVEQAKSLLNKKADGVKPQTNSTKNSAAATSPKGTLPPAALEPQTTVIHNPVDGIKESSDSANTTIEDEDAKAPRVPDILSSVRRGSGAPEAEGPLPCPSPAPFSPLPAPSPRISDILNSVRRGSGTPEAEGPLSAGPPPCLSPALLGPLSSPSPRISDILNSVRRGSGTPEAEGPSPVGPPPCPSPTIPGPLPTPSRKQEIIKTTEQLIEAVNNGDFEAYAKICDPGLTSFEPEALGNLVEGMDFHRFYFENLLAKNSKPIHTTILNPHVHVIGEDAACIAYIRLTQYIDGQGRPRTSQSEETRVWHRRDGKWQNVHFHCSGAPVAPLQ

# Set 1
# SMILES: CC(C)(O)c1cncc(-c2nc3ccc(F)cc3n2C2CC2)c1
# Observed: cell-free assay
# Technique: competition with immobilised ligand
# Tested at: 1 µM
target,remaining binding [%]
"Dual specificity mitogen-activated protein kinase kinase 7 (MAP2K7, Homo sapiens, UniProt O14733)",100
"Phosphatidylinositol 4,5-bisphosphate 3-kinase catalytic subunit alpha isoform (PIK3CA, Homo sapiens, UniProt P42336, H1047Y)",90
"Mast/stem cell growth factor receptor Kit (KIT, Homo sapiens, UniProt P10721)",100
"SRSF protein kinase 2 (SRPK2, Homo sapiens, UniProt P78362)",86
"Receptor-interacting serine/threonine-protein kinase 1 (RIPK1, Homo sapiens, UniProt Q13546)",100
"SNF-related serine/threonine-protein kinase (SNRK, Homo sapiens, UniProt Q9NRH2)",86
"Mast/stem cell growth factor receptor Kit (KIT, Homo sapiens, UniProt P10721, V559D/V654A)",87
"Mitogen-activated protein kinase kinase kinase kinase 5 (MAP4K5, Homo sapiens, UniProt Q9Y4K4)",92
"Fibroblast growth factor receptor 2 (FGFR2, Homo sapiens, UniProt P21802)",100
"Serine/threonine-protein kinase TAO1 (TAOK1, Homo sapiens, UniProt Q7L7X3)",100
"Serine/threonine-protein kinase Nek10 (NEK10, Homo sapiens, UniProt Q6ZWH5)",100
"Ribosomal protein S6 kinase alpha-3, N-terminal kinase domain (RPS6KA3, Homo sapiens, UniProt P51812)",100
"Activated CDC42 kinase 1 (TNK2, Homo sapiens, UniProt Q07912)",100
"BDNF/NT-3 growth factors receptor (NTRK2, Homo sapiens, UniProt Q16620)",100
"Dual specificity protein kinase CLK1 (CLK1, Homo sapiens, UniProt P49759)",94
"Serine/threonine-protein kinase PLK2 (PLK2, Homo sapiens, UniProt Q9NYY3)",100

# Set 2
# Target: Calcium/calmodulin-dependent protein kinase type 1D (CAMK1D, Homo sapiens, UniProt Q8IU85)
# Chain of UniProt Q8IU85 (whole entry, looked up): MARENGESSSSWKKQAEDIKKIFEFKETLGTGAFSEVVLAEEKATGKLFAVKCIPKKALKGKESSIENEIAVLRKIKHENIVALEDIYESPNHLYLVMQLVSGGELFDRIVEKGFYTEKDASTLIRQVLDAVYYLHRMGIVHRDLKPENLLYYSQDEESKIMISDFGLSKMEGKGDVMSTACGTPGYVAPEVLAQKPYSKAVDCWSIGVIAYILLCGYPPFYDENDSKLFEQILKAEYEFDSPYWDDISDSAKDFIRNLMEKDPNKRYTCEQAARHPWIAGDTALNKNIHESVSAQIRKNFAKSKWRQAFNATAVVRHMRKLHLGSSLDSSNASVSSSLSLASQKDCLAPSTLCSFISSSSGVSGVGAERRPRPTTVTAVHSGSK
# Observed: enzyme activity
# Mode: inhibitor
# Tested at: 0.5 µM
# Reference: control
Compound,remaining activity [%]
CC(C)[C@H](CO)Nc1nc(Nc2cc(N)cc(Cl)c2)c2ncn(C(C)C)c2n1,103
Nc1ccc2ncnc(NCCc3ccc(Oc4ccccc4)cc3)c2c1,102
COc1ccc(OC)c2c(=S)c3ccccc3[nH]c12,104
O=C(Nc1cccc(Nc2cc(Nc3cccc(C(F)(F)F)c3)ncn2)c1)C1CC1,100
CN(C)c1ccc(C=C2C(=O)Nc3ccccc32)cc1,98.8
O=C1NC(=O)C(c2cn(CCCO)c3ncccc23)=C1c1cnccn1,95.1
Cc1ccc(Nc2nccc(N(C)c3ccc4c(C)n(C)nc4c3)n2)cc1S(N)(=O)=O,91.5
O=C(CCCc1ccc(-c2ccccc2F)cc1)Nc1ccc(O)cc1,122
COc1ccc(C(=O)Nc2sc3c(c2C(N)=O)CCCC3)cc1OC,93.8
COc1cc2nccc(Oc3ccc(NC(=S)NC(=O)c4ccccc4C)cc3)c2cc1OC,72.5
Cc1cccc(-c2[nH]c(C(C)(C)C)nc2-c2ccc3c(c2)OCO3)n1,102
O=C1NC(=O)C(c2cn(CCCn3ccnc3)c3ccccc23)=C1Nc1ccccc1,97.4
Oc1ccc(-c2nc(-c3ccncc3)c(-c3ccc(F)cc3)[nH]2)cc1,102
O=c1c2ccccc2[nH]c(=S)n1CCN1CCC(=C(c2ccc(F)cc2)c2ccc(F)cc2)CC1,96.8
CO[C@H]1C[C@@H]2CC[C@@H](C)[C@@](O)(O2)C(=O)C(=O)N2CCCC[C@H]2C(=O)O[C@H]([C@H](C)C[C@@H]2CC[C@@H](O)[C@H](OC)C2)CC(=O)[C@H](C)/C=C(\C)[C@@H](O)[C@@H](OC)C(=O)[C@H](C)C[C@H](C)/C=C/C=C/C=C/1C,105

# Other studies, line by line
SMILES,tested on,test,system,setting,quantity,value
CC(C)n1cnc(-c2ccc(F)cc2)c1-c1ncc(C(=O)Nc2ccc(N3CCN(C)CC3)cc2)[nH]1,,,"human, idiopathic pulmonary fibrosis","30 mg twice daily, trial, with standard of care",treatment-related AEs,62.5%
Cc1cc(-c2ccc(/N=N/c3ccc4c(S(=O)(=O)O)cc(S(=O)(=O)O)c(N)c4c3O)c(C)c2)ccc1/N=N/c1ccc2c(S(=O)(=O)O)cc(S(=O)(=O)O)c(N)c2c1O,"Calcium/calmodulin-dependent protein kinase type II subunit beta (CAMK2B, Homo sapiens, UniProt Q13554)","enzyme activity, inhibitor",,,IC50,4.21 µM
